# Published values gathered from unrelated publications.
# Compare with care: the assays were run in different laboratories. ± gives the spread as reported.
Compound,host,medium,route,dose,time,tissue uptake
Cc1cc(O)cc(C)c1C[C@H](NC(=O)[C@@H]1CCCN1C(=O)[C@H](CCCNC(=N)N)NC(=O)[C@H](CCCNC(=N)N)N(C)C(=O)[C@@H]1CCCN1C(=O)[C@@H](CC(C)C)NC(=O)[C@@H](CC(C)C)NC(=O)[C@@H](CC(C)C)NC(=O)[C@@H](CC(C)C)NC(=O)[C@H](CCCCN)NC(=O)CN1CCN(CC(=O)O)CCN(CC(=O)O)CCN(CC(=O)O)CC1)C(=O)N[C@H](C(=O)N[C@@H](CC(C)C)C(=O)O)C(C)(C)C [lutetium-177 labelled],CF-1 mouse,kidney,iv,370 kBq,1 h,128 ± 13.1 %ID/g
CCCC[C@H](NC(=O)CNC(=O)CNC(=O)CN1CCN(CC(=O)O)CCN(CC(=O)O)CC1)C(=O)N[C@H]1CC(=O)NCCCC[C@@H](C(N)=O)NC(=O)[C@H](Cc2c[nH]c3ccccc23)NC(=O)[C@H](CCCNC(=N)N)NC(=O)[C@@H](Cc2ccccc2)NC(=O)[C@H](Cc2c[nH]cn2)NC1=O [technetium-99m labelled],C57 mouse,tumor,iv,0.037 MBq,24 h,3.16 ± 2.28 %ID/g
Cc1cc(O)cc(C)c1C[C@H](NC(=O)[C@@H]1CCCN1C(=O)[C@H](CCCNC(=N)N)NC(=O)[C@H](CCCNC(=N)N)N(C)C(=O)[C@@H]1CCCN1C(=O)[C@H](CCCCN)NC(=O)[C@@H](CC(C)C)NC(=O)[C@@H](CC(C)C)NC(=O)[C@@H](CC(C)C)NC(=O)[C@@H](CC(C)C)NC(=O)CN1CCN(CC(=O)O)CCN(CC(=O)O)CCN(CC(=O)O)CC1)C(=O)N[C@H](C(=O)N[C@@H](CC(C)C)C(=O)O)C(C)(C)C [lutetium-177 labelled],CF-1 mouse,small intestine,iv,370 kBq,1 h,4.46 ± 0.58 %ID/g
CC(C)[C@H](NC(=O)[C@@H]1CCCN1C(=O)[C@H](CCCNC(=N)N)NC(=O)[C@H](CS)NC(=O)[C@H](Cc1c[nH]c2ccccc12)NC(=O)[C@H](CCCNC(=N)N)NC(=O)[C@@H](Cc1ccccc1)NC(=O)[C@H](Cc1c[nH]cn1)NC(=O)[C@H](CCC(=O)O)NC(=O)[C@H](CS)NC(=O)[C@H](CS)NC(=O)[C@H](CCCCN)NC(=O)[C@@H]1CC(=O)N[C@@H](CCCNC(=N)N)C(=O)N[C@H](Cc2ccccc2)C(=O)N[C@@H](CC(=O)O)C(=O)N[C@H](Cc2ccc(O)cc2)C(=O)N1)C(N)=O [technetium-99m labelled],"C57 mouse, female",intestine,intravenous,0.037 MBq,2 h,2.58 ± 1.38 %ID
CCCC[C@H](NC(=O)CNC(=O)CNC(=O)CN1CCN(CC(=O)O)CCN(CC(=O)O)CCN(CC(=O)O)CC1)C(=O)N[C@H]1CC(=O)NCCCC[C@@H](C(N)=O)NC(=O)[C@H](Cc2c[nH]c3ccccc23)NC(=O)[C@H](CCCNC(=N)N)NC(=O)[C@@H](Cc2ccccc2)NC(=O)[C@H](Cc2c[nH]cn2)NC1=O [lutetium-177 labelled],"C57 mouse, female",brain,intravenous,0.037 MBq,0.5 h,0.21 ± 0.14 %ID/g
N=C(N)NCCC[C@@H]1NC(=O)[C@H](CCCCNC(=O)CCOCCOCCOCCOCCNC(=O)CC[C@H](NC(=O)CCOCCOCCOCCOCCNC(=O)CN2CCN(CC(=O)O)CCN(CC(=O)O)CCN(CC(=O)O)CC2)C(=O)NCCOCCOCCOCCOCCC(=O)NCCCC[C@@H]2NC(=O)[C@@H](Cc3ccccc3)NC(=O)[C@H](CC(=O)O)NC(=O)CNC(=O)[C@H](CCCNC(=N)N)NC2=O)NC(=O)[C@@H](Cc2ccccc2)NC(=O)[C@H](CC(=O)O)NC(=O)CNC1=O [copper-64 labelled],"athymic nu/nu mouse, female",kidney,intravenous,,0.5 h,6.59 ± 0.93 %ID/g
CC(C)C[C@H](NC(=O)CN1CCN(CC(=O)O)CCN(CC(=O)O)CC1)C(=O)N[C@@H](CC(C)C)C(=O)N[C@@H](CC(C)C)C(=O)N[C@@H](CC(C)C)C(=O)N[C@@H](CCCNC(=N)N)C(=O)N[C@H](C(=O)N[C@@H](CCCCN)C(=O)N[C@@H](CCCNC(=N)N)C(N)=O)C(C)C [copper-64 labelled],"CD1 mouse, male",heart,intravenous,,15 min,7.4 ± 0.4 %ID/g
N=C(N)NCCC[C@@H]1NC(=O)[C@H](CCCCNC(=O)CNC(=O)CNC(=O)CNC(=O)CC[C@H](NC(=O)CNC(=O)CNC(=O)CNC(=O)CN2CCN(CC(=O)O)CCN(CC(=O)O)CCN(CC(=O)O)CC2)C(=O)NCC(=O)NCC(=O)NCC(=O)NCCCC[C@@H]2NC(=O)[C@@H](Cc3ccccc3)NC(=O)[C@H](CC(=O)O)NC(=O)CNC(=O)[C@H](CCCNC(=N)N)NC2=O)NC(=O)[C@@H](Cc2ccccc2)NC(=O)[C@H](CC(=O)O)NC(=O)CNC1=O [copper-64 labelled],"athymic nu/nu mouse, female",muscle,intravenous,,4 h,0.86 ± 0.08 %ID/g
CSCC[C@H](NC(=O)[C@H](CC(C)C)NC(=O)[C@H](Cc1c[nH]cn1)NC(=O)CNC(=O)[C@@H](NC(=O)[C@H](C)NC(=O)[C@H](Cc1c[nH]c2ccccc12)NC(=O)[C@H](CCC(N)=O)NC(=O)CCOCCOCCOCCOCCNC(=O)CN1CCN(CC(=O)O)CCN(CC(=O)O)CCN(CC(=O)O)CC1)C(C)C)C(N)=O [indium-111 labelled],"Swiss nu/nu mouse, male, PC-3 tumour xenograft",colon,intravenous,10 pmol,24 h,1 ± 0.4 %ID/g
Cc1cc(O)cc(C)c1C[C@H](NC(=O)[C@@H]1CCCN1C(=O)[C@H](CCCNC(=N)N)NC(=O)[C@H](CCCNC(=N)N)N(C)C(=O)[C@@H]1CCCN1C(=O)[C@@H](CC(C)C)NC(=O)[C@@H](CC(C)C)NC(=O)[C@H](CCCCN)NC(=O)[C@@H](CC(C)C)NC(=O)[C@@H](CC(C)C)NC(=O)CN1CCN(CC(=O)O)CCN(CC(=O)O)CCN(CC(=O)O)CC1)C(=O)N[C@H](C(=O)N[C@@H](CC(C)C)C(=O)O)C(C)(C)C [lutetium-177 labelled],CF-1 mouse,small intestine,iv,370 kBq,1 h,4.25 ± 0.75 %ID/g
